Published values collected from several papers.
Numbered parts are unrelated; each lists some results of a single study. Substitutions count along the parent as printed.

Block 1 — method: universal PBM; form: double-stranded DNA, one strand shown; sample: in vitro; concentration: 600 nM; direction: higher = stronger binding
Target: Sal-like protein 4, full length isoform A (SALL4, Homo sapiens, UniProt Q9UJQ4, residues 1-1053)
UniProt Q9UJQ4, sequence (whole entry, looked up): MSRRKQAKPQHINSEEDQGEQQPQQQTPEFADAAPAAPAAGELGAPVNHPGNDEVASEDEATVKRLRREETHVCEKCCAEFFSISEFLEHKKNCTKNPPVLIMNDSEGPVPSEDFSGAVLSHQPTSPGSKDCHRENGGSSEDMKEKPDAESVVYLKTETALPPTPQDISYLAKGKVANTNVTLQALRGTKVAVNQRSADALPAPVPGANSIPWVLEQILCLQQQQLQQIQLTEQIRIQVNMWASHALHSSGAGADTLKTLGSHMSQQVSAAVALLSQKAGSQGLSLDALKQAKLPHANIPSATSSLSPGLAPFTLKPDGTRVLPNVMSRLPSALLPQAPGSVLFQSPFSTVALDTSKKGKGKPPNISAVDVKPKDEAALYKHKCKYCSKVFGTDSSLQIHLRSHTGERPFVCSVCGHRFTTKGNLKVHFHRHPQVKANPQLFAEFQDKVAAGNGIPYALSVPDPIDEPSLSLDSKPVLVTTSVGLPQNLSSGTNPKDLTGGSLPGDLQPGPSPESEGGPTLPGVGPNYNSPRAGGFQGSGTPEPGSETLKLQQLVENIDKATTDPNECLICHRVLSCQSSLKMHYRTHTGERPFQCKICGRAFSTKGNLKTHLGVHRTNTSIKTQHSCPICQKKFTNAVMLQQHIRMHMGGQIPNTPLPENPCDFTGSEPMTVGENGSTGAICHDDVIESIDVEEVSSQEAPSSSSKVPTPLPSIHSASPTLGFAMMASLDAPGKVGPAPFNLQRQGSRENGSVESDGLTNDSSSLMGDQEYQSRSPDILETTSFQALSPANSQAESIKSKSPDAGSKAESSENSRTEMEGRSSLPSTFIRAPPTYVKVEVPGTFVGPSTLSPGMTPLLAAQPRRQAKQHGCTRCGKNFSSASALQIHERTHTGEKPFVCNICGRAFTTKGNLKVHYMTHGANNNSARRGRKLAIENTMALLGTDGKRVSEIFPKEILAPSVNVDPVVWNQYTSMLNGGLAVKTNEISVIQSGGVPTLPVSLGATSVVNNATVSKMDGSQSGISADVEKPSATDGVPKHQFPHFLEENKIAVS
Setting: 8-mer, flanks averaged, mean of replicates
| Oligonucleotide | E-score |
| --- | --- |
| ACGGTCTC | -0.0899 |
| GCCGCGTA | -0.192 |
| TAAGCTAA | 0.222 |
| ATAAGTCA | 0.261 |
| CGACTTAA | 0.167 |
| ATCTGCCG | -0.184 |
| GGCACCCC | -0.275 |

Block 2 — target: CCNF, cyclin fold, Cln2 fusion (human); method: yeast growth competition, sequencing; sample: yeast; setting: strong parent motif; baseline: not given; direction: higher = stronger binding
Starting sequence: MICAL3 docking peptide (human); LQLRRQLSFSEDS
| Variant | normalised enrichment score |
| --- | --- |
| E11N | 5.19 |
| E11C | 6.14 |
| Q6F | 1.79 |

Block 3 — method: aptamer microarray, sandwich; form: DNA with 2'F-ANA; sample: in vitro; concentration: 200 nM; with: Cy3 exosite-II aptamer, 400 nM; direction: higher = stronger binding; oligonucleotide: GGTTGGTGTGGTTGG
Target: Prothrombin, mature alpha-thrombin (F2, Homo sapiens, UniProt P00734)
Setting: whole 15-mer aptamer, many near background
| Modification | mean fluorescence intensity [a.u.] |
| --- | --- |
| 2'F-ANA at 1 2 4 5 7 10 11 12 15 | 62.7 |
| 2'F-ANA at 1 4 6 7 8 9 13 14 | 57.8 |
| 2'F-ANA at 2 4 5 6 7 9 12 13 14 | 46.3 |
| 2'F-ANA at 2 3 5 6 8 9 10 12 13 15 | 54.4 |
| 2'F-ANA at 5 6 7 10 12 15 | 50.5 |

Further values, each from its own experiment
| Substance | target | assay | system | setting | scale | measurement | value |
| --- | --- | --- | --- | --- | --- | --- | --- |
| PhoQ, residues 284 288 289 292 302 303 ALASRC | PhoP, residues 12 14 15 18 19 LHSVW (Escherichia coli, UniProt P23836) | Sort-seq, item: YFP reporter | E. coli | PhoQ-PhoP variant library, with: 10 µM Mg2+ | baseline: high Mg2+ state, higher = stronger signaling | fold induction | 3.05 |

Some of these lines once more (block 1):
| Oligonucleotide | E-score |
| --- | --- |
| GGCACCCC | -0.275 |
| TAAGCTAA | 0.222 |
